Measured values from different studies.
Every numbered part comes from another study and shows a few of its results, in no order. Several values in a cell are separate wells, animals, samples, runs or records.
Chain of UniProt Q8TDX7 (whole entry, looked up): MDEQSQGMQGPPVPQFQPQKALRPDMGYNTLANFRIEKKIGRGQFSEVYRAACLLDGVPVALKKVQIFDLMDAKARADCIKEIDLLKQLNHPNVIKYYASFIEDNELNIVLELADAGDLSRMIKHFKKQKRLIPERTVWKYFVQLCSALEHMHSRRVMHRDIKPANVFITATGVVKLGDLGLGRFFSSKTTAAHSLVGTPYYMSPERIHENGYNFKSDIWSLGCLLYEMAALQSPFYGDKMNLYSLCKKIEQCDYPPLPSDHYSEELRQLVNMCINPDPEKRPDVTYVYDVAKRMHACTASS
Chain of UniProt Q9P289 (whole entry, looked up): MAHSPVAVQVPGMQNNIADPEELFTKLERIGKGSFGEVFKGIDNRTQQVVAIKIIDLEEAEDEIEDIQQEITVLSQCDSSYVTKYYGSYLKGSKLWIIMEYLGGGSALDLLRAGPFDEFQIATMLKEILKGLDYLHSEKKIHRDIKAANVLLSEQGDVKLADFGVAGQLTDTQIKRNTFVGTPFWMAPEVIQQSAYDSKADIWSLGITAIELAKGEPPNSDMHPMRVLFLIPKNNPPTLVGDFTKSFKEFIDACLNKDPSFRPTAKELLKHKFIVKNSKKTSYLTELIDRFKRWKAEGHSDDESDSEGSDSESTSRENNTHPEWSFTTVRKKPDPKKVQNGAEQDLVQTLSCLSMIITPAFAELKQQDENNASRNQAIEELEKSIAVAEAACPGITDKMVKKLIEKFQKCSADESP
Chain of UniProt Q9BUB5 (whole entry, looked up): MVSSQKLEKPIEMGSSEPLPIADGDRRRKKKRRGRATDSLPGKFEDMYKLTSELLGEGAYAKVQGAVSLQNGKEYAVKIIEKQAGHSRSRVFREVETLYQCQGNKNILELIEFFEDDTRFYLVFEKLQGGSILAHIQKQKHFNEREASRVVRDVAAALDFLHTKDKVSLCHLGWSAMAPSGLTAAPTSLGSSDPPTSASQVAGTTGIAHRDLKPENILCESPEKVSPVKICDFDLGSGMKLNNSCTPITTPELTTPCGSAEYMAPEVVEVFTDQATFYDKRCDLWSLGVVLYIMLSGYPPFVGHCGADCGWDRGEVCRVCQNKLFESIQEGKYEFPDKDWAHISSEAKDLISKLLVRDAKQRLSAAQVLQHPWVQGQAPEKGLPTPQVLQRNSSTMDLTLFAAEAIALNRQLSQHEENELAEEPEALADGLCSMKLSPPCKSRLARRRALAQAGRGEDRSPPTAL
Chain of UniProt Q96KB5 (whole entry, looked up): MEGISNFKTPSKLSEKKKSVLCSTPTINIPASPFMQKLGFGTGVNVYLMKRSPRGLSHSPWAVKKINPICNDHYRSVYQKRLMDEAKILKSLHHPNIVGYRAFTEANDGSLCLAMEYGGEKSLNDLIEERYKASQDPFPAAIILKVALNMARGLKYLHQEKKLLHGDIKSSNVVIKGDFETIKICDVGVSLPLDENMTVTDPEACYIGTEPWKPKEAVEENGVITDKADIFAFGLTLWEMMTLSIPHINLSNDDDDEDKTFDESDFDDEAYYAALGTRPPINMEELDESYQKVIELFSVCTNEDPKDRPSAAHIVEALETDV
Chain of UniProt P21709 (whole entry, looked up): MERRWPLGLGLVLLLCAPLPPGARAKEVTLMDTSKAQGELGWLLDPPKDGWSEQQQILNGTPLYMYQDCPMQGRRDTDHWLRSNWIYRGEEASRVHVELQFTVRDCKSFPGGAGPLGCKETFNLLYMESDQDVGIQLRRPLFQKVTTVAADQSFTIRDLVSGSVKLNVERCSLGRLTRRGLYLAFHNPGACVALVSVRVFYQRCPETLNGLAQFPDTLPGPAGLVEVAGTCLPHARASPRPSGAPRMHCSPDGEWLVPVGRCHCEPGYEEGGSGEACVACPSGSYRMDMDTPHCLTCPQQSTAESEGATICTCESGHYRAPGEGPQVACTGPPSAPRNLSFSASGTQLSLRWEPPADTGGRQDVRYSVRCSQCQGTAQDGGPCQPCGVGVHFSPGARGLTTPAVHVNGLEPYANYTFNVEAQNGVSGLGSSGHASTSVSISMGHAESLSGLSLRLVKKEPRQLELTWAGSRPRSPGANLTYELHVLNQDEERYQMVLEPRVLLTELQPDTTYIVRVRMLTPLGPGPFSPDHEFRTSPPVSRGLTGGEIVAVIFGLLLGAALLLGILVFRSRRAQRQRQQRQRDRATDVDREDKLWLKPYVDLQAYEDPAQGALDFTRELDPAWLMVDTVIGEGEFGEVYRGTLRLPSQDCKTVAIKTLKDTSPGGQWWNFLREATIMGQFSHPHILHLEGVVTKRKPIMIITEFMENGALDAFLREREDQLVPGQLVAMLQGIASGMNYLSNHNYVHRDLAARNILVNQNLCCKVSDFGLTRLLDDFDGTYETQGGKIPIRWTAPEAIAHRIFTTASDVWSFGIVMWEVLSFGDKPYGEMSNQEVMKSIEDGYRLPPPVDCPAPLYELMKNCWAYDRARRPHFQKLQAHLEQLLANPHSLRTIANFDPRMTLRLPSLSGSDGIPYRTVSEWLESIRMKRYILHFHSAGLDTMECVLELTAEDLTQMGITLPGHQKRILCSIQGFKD
Chain of UniProt P45983 (whole entry, looked up): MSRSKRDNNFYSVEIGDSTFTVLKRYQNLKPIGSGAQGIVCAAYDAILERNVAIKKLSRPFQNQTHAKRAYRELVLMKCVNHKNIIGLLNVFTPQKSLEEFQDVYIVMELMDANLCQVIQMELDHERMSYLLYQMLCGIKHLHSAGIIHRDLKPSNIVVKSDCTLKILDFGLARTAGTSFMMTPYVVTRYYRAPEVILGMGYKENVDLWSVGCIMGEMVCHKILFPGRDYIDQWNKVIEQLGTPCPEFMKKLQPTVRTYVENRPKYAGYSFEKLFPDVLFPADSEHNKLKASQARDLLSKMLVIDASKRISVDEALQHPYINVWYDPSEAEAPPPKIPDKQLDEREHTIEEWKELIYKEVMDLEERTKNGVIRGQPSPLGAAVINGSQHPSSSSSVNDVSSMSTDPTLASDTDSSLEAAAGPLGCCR
Chain of UniProt Q9H1R3 (whole entry, looked up): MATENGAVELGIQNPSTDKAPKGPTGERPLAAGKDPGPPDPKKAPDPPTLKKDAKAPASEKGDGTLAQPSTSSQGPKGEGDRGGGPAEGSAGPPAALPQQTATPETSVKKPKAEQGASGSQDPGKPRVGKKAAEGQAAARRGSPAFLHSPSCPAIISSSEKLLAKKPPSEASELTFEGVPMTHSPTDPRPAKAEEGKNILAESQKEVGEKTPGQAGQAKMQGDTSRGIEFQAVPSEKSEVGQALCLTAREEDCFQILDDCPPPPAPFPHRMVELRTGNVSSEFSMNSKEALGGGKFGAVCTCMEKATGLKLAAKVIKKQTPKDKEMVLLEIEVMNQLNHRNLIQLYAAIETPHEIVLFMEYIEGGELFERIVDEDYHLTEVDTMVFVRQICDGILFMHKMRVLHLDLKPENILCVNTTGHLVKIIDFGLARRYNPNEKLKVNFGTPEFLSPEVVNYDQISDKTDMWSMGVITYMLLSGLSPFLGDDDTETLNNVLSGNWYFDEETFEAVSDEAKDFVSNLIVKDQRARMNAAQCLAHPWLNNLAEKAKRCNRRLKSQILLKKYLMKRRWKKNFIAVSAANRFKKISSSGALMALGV
Chain of UniProt Q13555 (whole entry, looked up): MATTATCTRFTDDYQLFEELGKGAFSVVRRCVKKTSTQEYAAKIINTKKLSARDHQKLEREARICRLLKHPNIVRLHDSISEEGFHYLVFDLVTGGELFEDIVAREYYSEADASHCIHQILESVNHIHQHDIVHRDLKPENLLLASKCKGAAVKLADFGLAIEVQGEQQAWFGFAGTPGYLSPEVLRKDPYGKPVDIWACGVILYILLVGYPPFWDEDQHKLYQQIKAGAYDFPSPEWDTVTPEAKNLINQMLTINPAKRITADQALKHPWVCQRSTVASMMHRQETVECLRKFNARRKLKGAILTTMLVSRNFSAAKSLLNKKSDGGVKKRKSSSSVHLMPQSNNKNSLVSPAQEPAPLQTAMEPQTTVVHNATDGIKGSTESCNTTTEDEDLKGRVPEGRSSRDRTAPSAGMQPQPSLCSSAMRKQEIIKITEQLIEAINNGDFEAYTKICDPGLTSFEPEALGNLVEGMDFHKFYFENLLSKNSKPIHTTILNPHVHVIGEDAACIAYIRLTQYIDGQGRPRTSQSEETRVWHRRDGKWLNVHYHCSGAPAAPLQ
Chain of UniProt O43293 (whole entry, looked up): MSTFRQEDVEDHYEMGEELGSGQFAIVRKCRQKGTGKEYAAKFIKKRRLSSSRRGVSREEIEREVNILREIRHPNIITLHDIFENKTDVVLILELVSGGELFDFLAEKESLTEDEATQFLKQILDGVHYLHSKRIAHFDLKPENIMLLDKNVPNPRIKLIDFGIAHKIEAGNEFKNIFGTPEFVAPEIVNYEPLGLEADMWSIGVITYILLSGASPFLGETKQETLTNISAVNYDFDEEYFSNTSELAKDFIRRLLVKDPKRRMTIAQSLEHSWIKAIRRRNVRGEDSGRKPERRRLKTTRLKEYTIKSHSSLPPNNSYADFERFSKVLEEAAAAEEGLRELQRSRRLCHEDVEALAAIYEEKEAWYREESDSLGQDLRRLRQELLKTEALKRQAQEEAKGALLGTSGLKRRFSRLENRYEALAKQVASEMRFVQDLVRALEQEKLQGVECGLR
Chain of UniProt Q9HCP0 (whole entry, looked up): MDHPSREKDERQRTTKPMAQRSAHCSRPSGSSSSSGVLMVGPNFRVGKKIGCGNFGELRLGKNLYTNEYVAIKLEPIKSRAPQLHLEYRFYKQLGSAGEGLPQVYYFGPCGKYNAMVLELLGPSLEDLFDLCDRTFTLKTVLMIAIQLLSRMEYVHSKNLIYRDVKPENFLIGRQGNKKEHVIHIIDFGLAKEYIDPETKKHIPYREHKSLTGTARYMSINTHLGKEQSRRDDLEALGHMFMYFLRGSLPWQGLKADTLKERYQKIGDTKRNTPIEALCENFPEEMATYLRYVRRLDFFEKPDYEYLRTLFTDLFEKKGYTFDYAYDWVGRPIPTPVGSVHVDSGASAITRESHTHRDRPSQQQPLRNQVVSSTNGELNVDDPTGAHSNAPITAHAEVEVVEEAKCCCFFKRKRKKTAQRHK

Sample 1 — cell line: mouse MPNST tumor cells; method: high-content immunofluorescence imaging; refers to: nuclear SOX9; concentration: 10 µM; time: 12 h; setting: mean of 2 replicates; reference: DMSO control; direction: higher = more nuclear SOX9
`Cc1[nH]c2ccc(Cl)cc2c1C1=CCNCC1` — result for “nuclear SOX9 intensity”: 160 % of DMSO.
For `C[C@]12Cc3c[nH]nc3C[C@@H]1CC[C@@H]1[C@@H]2CC[C@@]2(C)[C@H]1CC[C@]2(C)O`, “nuclear SOX9 intensity” read 141 % of DMSO.
`CCc1c(C(=O)OC)ncc2[nH]c3cc(OC)c(OC)cc3c12`: “nuclear SOX9 intensity” 135 % of DMSO.
`O=C(Nc1ccccc1)C(=O)c1cn(Cc2ccccc2)c2ccccc12` — result for “nuclear SOX9 intensity”: 171 % of DMSO.
`O=c1[nH]oc2c1CCNC2`: “nuclear SOX9 intensity” 95.2 % of DMSO and 94.2 % of DMSO.
`CC(C)CC(N)C1(c2ccc(Cl)cc2)CCC1` (stereo not drawn) — result for “nuclear SOX9 intensity”: 113 % of DMSO.
`COc1cc(Br)c(OC)c2c1C(CN)C2` (stereo not drawn): “nuclear SOX9 intensity” 96.7 % of DMSO.
`C[C@@H]1CN([C@H]2CC[C@](C#N)(c3ccc(F)cc3)CC2)CC[C@]1(C(=O)O)c1ccccc1`: “nuclear SOX9 intensity” 102 % of DMSO.
For `CC[C@@H](CO)NC(=O)[C@@H]1C=C2c3cccc4[nH]cc(c34)C[C@H]2N(C)C1`, “nuclear SOX9 intensity” read 108 % of DMSO.
For `C[C@]12CC[C@@H](O)C[C@@H]1CC[C@@H]1[C@@H]2CC[C@]2(C)C(=O)CC[C@@H]12`, “nuclear SOX9 intensity” read 90.1 % of DMSO.

Sample 2 — observed: enzyme activity; action: inhibitor; concentration: 0.5 µM; reference: control
SMILES: O=C1NC(=O)c2c1c1c3ccccc3n3c1c1c2c2ccccc2n1[C@H]1CC[C@@H]3O1
CAMK2G (Homo sapiens, UniProt Q13555) — remaining activity: 8.36%.
EPHA8 (Homo sapiens, UniProt P29322) — remaining activity: 89.9%.
The remaining activity was 98.5% (MAPK8 (Homo sapiens, UniProt P45983)).
It gave 52% for remaining activity (NUAK2 (Homo sapiens, UniProt Q9H093)).
The remaining activity was 20.5% (STK26 (Homo sapiens, UniProt Q9P289)).
The remaining activity was 99.1% (NEK7 (Homo sapiens, UniProt Q8TDX7)).
For IRAK1 (Homo sapiens, UniProt P51617): remaining activity read 37.5%.
It gave 4.32% for remaining activity (TYK2 (Homo sapiens, UniProt P29597)).
It gave 72.5% for remaining activity (ERBB4 (Homo sapiens, UniProt Q15303)).
The remaining activity was 1.37% (MAP3K11 (Homo sapiens, UniProt Q16584)).
The remaining activity was 14.3% (STK24 (Homo sapiens, UniProt Q9Y6E0)).
For PRKD2 (Homo sapiens, UniProt Q9BZL6): remaining activity read 2.02%.
CSNK1G1 (Homo sapiens, UniProt Q9HCP0) — remaining activity: 96.1%.
For DAPK3 (Homo sapiens, UniProt O43293): remaining activity read 24.6%.
For Protein kinase C beta type, isoform beta-II (PRKCB, Homo sapiens, UniProt P05771): remaining activity read 6.42%.
The remaining activity was 7.76% (MYLK2 (Homo sapiens, UniProt Q9H1R3)).
It gave 48.6% for remaining activity (MKNK1 (Homo sapiens, UniProt Q9BUB5)).
The remaining activity was 90.1% (EPHA1 (Homo sapiens, UniProt P21709)).
The remaining activity was 80.4% (MAPKAPK5 (Homo sapiens, UniProt Q8IW41)).
The remaining activity was 39.9% (PBK (Homo sapiens, UniProt Q96KB5)).

Sample 3 — organism: Sarcocystis neurona; observed: parasite growth; concentration: 10 µM; time: 96 h; setting: first screen
For `FC(F)(F)c1cccc(N2CCNCC2)c1`, the inhibition was 14.3%.
`c1cncc([C@@H]2CCCN2)c1` has an inhibition of 29.3%.
`CN1CCN(C(=O)O[C@H]2c3nccnc3C(=O)N2c2ccc(Cl)cn2)CC1` has an inhibition of -13.2%.
`CN1C(=O)COc2c(C(=O)NC3CN4CCC3CC4)cc(Cl)cc21` (stereo not drawn) gave an inhibition of -5.3%.
`NC1=NC(=O)C(c2ccccc2)O1` (stereo not drawn) has an inhibition of -1.2%.
With `C[C@]12CC[C@H](O)CC1=CC[C@@H]1[C@@H]2CC[C@@]2(C)[C@H]1CC[C@]2(C)O` the inhibition was -1.7%.

Sample 4 — method: CCK-8
Compound: CC(C)S(=O)(=O)c1cc2c(Nc3ccc4sc(C5CCCC5)nc4c3)ccnc2cc1OCCO
For L929 RIPK3-/- reexpressing RIPK3 K51A; 12.5 µM: survival read 60.3% and 73.1% and 63.4% and 70.1% and 69.6%.
For L929 RIPK3-/- reexpressing RIPK3 K51A/R69H; 6.25 µM, with: zVAD: survival read 85.1% and 96.2% and 93.6% and 94.9% and 93.9%.
The survival was 13.7% and 13.1% and 11.3% and 12.7% and 10.9% (L929 RIPK3-/- reexpressing RIPK3 K51A; 50 µM).
It gave 62.4% and 56% and 56.9% and 64.4% and 62.6% for survival (L929 RIPK3-/- reexpressing RIPK3 K51A/R69H; 25 µM, with: zVAD).
The survival was 44.6% and 38.2% and 47.5% and 39.6% and 50.7% (L929 RIPK3-/- reexpressing RIPK3 K51A; 25 µM).
L929 RIPK3-/- reexpressing RIPK3 K51A; 6.25 µM, with: zVAD — survival: 73.6% and 78.4% and 84.2% and 77.1% and 85.6%.

Some of these lines once more (sample 2):
CAMK2G (Homo sapiens, UniProt Q13555) — remaining activity: 8.36%.
EPHA8 (Homo sapiens, UniProt P29322) — remaining activity: 89.9%.
The remaining activity was 98.5% (MAPK8 (Homo sapiens, UniProt P45983)).
It gave 52% for remaining activity (NUAK2 (Homo sapiens, UniProt Q9H093)).
The remaining activity was 20.5% (STK26 (Homo sapiens, UniProt Q9P289)).
The remaining activity was 99.1% (NEK7 (Homo sapiens, UniProt Q8TDX7)).
